{"data": "Measured values pooled from the literature", "note": "Parts stem from different laboratories: compare values within a part only. pEC50: −log10 of the molar value.", "sequence of UniProt P11802 (whole entry, looked up)": "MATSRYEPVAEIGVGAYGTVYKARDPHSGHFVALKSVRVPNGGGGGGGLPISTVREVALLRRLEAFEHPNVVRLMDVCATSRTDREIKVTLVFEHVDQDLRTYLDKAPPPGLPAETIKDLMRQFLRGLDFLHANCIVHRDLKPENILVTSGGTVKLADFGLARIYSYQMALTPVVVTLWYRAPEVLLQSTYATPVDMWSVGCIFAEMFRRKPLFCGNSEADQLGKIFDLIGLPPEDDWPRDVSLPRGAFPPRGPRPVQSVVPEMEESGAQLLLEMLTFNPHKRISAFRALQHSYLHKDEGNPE", "sequence of UniProt P19525 (whole entry, looked up)": "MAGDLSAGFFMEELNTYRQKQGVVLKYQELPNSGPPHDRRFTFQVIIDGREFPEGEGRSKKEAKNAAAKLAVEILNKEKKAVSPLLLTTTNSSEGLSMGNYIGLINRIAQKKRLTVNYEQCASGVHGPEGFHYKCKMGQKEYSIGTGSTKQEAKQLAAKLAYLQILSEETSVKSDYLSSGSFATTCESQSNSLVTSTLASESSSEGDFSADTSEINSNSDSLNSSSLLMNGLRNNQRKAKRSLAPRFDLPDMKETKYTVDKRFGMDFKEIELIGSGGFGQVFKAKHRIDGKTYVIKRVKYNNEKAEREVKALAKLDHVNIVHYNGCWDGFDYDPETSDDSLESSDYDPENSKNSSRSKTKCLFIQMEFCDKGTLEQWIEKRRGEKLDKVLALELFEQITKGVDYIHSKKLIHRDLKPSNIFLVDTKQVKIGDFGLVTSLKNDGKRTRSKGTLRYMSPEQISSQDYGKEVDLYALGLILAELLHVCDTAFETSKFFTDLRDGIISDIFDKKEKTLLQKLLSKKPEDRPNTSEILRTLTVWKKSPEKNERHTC", "sequence of UniProt Q59H18 (whole entry, looked up)": "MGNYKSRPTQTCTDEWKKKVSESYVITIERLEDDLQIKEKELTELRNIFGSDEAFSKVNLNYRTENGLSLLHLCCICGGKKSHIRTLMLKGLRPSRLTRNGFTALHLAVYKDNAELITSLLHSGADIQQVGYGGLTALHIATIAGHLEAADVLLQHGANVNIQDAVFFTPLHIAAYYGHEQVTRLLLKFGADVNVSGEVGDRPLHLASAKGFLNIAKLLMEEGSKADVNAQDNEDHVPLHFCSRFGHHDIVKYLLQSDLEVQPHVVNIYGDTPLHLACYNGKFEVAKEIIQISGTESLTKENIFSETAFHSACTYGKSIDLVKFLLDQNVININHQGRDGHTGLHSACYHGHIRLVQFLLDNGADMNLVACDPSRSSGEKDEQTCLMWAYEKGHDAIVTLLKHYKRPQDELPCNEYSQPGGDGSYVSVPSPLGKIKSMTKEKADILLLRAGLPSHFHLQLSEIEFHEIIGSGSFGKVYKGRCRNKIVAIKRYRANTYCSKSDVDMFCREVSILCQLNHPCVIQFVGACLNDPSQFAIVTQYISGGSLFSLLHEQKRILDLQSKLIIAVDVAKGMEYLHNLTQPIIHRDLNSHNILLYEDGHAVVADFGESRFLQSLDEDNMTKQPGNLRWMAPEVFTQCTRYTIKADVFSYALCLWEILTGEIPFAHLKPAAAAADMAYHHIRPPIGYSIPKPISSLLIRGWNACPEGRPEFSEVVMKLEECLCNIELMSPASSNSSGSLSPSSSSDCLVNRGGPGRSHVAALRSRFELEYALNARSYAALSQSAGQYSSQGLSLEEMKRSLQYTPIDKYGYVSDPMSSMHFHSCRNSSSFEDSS"}
{"data": "Block 1", "target": "Mitogen-activated protein kinase kinase kinase 9 (MAP3K9, Homo sapiens, UniProt P80192)", "observed": "enzyme activity", "mode": "inhibitor", "concentration": "0.5 µM", "reference": "control", "sequence of UniProt P80192 (whole entry, looked up)": "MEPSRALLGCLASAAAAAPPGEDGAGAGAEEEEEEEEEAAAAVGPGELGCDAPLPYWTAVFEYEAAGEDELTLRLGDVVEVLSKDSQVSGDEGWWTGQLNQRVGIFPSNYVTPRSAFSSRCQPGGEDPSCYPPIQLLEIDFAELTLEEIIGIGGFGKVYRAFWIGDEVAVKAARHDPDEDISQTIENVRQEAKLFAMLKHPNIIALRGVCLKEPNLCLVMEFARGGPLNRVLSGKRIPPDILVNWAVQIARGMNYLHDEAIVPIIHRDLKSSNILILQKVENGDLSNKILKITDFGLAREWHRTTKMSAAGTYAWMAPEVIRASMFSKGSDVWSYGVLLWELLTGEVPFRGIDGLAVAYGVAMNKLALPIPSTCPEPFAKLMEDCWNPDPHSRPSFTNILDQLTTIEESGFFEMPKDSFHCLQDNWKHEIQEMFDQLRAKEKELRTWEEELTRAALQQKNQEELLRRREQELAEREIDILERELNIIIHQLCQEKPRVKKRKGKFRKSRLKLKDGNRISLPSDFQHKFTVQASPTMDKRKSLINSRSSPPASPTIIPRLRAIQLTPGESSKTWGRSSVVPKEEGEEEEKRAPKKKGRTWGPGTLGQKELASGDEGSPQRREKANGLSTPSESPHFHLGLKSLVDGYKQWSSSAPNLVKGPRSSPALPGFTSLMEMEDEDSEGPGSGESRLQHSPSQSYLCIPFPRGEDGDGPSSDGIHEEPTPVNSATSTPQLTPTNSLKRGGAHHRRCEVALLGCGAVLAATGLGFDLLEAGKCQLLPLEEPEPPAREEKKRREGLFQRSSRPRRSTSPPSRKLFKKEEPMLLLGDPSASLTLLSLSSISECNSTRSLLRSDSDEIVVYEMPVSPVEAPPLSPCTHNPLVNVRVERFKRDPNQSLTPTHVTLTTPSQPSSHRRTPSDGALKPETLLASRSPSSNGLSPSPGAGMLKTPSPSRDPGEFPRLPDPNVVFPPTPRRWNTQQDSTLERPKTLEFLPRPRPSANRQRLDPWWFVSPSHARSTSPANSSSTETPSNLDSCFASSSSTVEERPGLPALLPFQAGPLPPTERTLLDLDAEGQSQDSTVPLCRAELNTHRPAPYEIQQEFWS"}
{"SMILES": "NC(=O)c1cccc(-c2cc(Nc3ccc(OC(F)(F)F)cc3)ncn2)c1", "remaining activity": "95.7%"}
{"SMILES": "O=Nc1c(-c2c(O)[nH]c3ccccc23)[nH]c2ccccc12", "remaining activity": "19.1%"}
{"SMILES": "O=C(c1ccccc1)c1ccc(N2CCOCC2)cc1O", "remaining activity": "112%"}
{"SMILES": "CCN(CC)CCCCN1c2ccccc2Oc2ccc(Cl)cc21", "remaining activity": "95.7%"}
{"SMILES": "NC(=O)c1ccc(-c2nc(-c3ccc4c(c3)OCCO4)c(-c3ccccn3)[nH]2)cc1", "remaining activity": "101%"}
{"SMILES": "Nc1nc(Nc2ccc(S(N)(=O)=O)cc2)nn1C(=S)Nc1c(F)cccc1F", "remaining activity": "-0.373%"}
{"SMILES": "CC(C)n1cnc2c(Nc3cccc(Cl)c3)nc(NCCO)nc21", "remaining activity": "27.2%"}
{"SMILES": "O=c1c(-c2ccc(F)cc2)c(-c2ccncc2)[nH]n1-c1ccc(Cl)cc1", "remaining activity": "103%"}
{"SMILES": "N#C/C(=C(/N)SC1C=CC=CC1)c1cccc(C(O)c2ccncc2)c1 (stereo not shown)", "remaining activity": "109%"}
{"SMILES": "CC(C)N(CCC(=O)c1ccc2ccccc2c1)Cc1ccccc1", "remaining activity": "104%"}
{"SMILES": "O=C(O)/C=C/c1cc(Br)c(Br)c(Br)c1Br", "remaining activity": "101%"}
{"data": "Block 2", "target": "Beta-1 adrenergic receptor (ADRB1, Homo sapiens, UniProt P08588)", "mode": "agonist", "sequence of UniProt P08588 (whole entry, looked up)": "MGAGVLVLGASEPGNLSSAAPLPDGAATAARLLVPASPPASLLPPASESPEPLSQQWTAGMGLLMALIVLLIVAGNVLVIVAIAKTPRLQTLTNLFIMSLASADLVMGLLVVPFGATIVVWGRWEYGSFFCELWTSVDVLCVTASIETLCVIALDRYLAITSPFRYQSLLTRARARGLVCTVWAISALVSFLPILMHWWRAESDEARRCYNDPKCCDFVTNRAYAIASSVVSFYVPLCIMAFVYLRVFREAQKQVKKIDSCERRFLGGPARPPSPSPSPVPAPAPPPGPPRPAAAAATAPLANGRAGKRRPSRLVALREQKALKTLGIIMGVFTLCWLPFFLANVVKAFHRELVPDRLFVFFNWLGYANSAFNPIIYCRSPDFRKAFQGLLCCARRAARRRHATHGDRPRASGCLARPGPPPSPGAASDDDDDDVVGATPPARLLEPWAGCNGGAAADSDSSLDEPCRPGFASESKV"}
{"Structure (SMILES)": "O=c1c2cc(-c3ccc(F)cc3)nn2ccn1CC(O)c1ccc2c(c1)OCO2 (stereo not shown)", "pEC50": "≤ 4.00"}
{"Structure (SMILES)": "CCC(CC)C(=O)Nc1ccc([C@@H](O)[C@H]2COCC(=O)N2)cc1", "pEC50": "≤ 4.00"}
{"Structure (SMILES)": "Cc1noc2c(-c3cnn(C)c3)cc(-c3cccnc3)nc12", "pEC50": "≤ 4.00"}
{"Structure (SMILES)": "Cc1nnc(CN(C)Cc2ccccc2OCC(O)CN2CCSCC2)o1 (stereo not shown)", "pEC50": "≤ 4.00"}
{"Structure (SMILES)": "COc1cc(CNCC2CCOCC2)ccc1OCC(O)CN(C)C1CCCCC1 (stereo not shown)", "pEC50": "≤ 4.00"}
{"Structure (SMILES)": "O=C(Nc1cc(F)ccc1Cl)c1cc2n(n1)CC(c1ccc(Br)cc1)OC2 (stereo not shown)", "pEC50": "≤ 4.00"}
{"Structure (SMILES)": "O=C1CCCC2=C1C(c1ccc(O)cc1)Nc1ccc(C(=O)c3ccccc3)cc1N2 (stereo not shown)", "pEC50": "≤ 4.00"}
{"Structure (SMILES)": "CC1=CC(C)(C)NC(Nc2nc(-c3ccccc3)c3ccccc3n2)=N1", "pEC50": "≤ 4.00"}
{"Structure (SMILES)": "NCC(=O)Nc1cccc(-c2nn3c(=O)cc(N4CCNCC4)nc3s2)c1", "pEC50": "≤ 4.00"}
{"Structure (SMILES)": "COc1ccccc1N1CCN([C@H]2[C@@H]3OC[C@@H](O3)[C@@H](NCc3ccc4c(c3)OCO4)[C@@H]2O)CC1", "pEC50": "≤ 4.00"}
{"Structure (SMILES)": "CCN1CCN(CC(O)COc2cccc(CNCCc3cccc(C)n3)c2)CC1 (stereo not shown)", "pEC50": "≤ 4.00"}
{"Structure (SMILES)": "c1cc(N2CCOCC2)ccc1-c1cc(-c2cn[nH]c2)c2cncn2c1", "pEC50": "≤ 4.00"}
{"Structure (SMILES)": "Cc1noc(C)c1-c1cc2cc(CO)oc2c(NC2CCOCC2)n1", "pEC50": "≤ 4.00"}
{"data": "Block 3", "target": "Calcium/calmodulin-dependent protein kinase type II subunit alpha (CAMK2A, Homo sapiens, UniProt Q9UQM7)", "observed": "enzyme activity", "mode": "inhibitor", "concentration": "10 µM", "sequence of UniProt Q9UQM7 (whole entry, looked up)": "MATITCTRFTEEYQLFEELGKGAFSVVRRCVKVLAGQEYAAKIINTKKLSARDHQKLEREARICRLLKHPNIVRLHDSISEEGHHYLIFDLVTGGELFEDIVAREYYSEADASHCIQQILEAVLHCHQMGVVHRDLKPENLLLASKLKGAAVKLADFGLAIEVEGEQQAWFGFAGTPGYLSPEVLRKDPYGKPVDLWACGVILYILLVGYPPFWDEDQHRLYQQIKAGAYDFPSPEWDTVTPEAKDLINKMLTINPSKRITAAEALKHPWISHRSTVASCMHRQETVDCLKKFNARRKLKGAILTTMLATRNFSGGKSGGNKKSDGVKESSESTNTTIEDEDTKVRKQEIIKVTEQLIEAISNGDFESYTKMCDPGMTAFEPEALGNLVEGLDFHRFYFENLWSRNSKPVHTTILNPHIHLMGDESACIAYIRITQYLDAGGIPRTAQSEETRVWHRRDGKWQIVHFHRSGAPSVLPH"}
{"SMILES": "C=C[C@@](C)(/C=C/c1ccc(O)cc1)CCC=C(C)C", "inhibition": "-33%"}
{"SMILES": "CSC(=O)OCC1=C[C@H](O)[C@@H]2C(C(=O)O)=CO[C@@H](O[C@@H]3O[C@H](CO)[C@@H](O)[C@H](O)[C@H]3O)[C@H]12", "inhibition": "-6%"}
{"SMILES": "O=C(CCc1ccc(O)cc1)c1c(O)cc(O)cc1O", "inhibition": "36%"}
{"SMILES": "O=C(O)c1cccc(Oc2ccccc2)c1", "inhibition": "-15%"}
{"SMILES": "C=CCc1cc(OC)c(O)c(C(=O)NCCO)c1", "inhibition": "-8%"}
{"SMILES": "CCCCCCCCCCCC1=C(O)C(=O)C=C(O)C1=O", "inhibition": "-28%"}
{"SMILES": "C[C@H]1[C@H](C)CC[C@]2(C(=O)O)CC[C@]3(C)C(=CC[C@@H]4[C@@]5(C)CC[C@H](O)C(C)(C)[C@@H]5CC[C@]43C)[C@H]12", "inhibition": "-6%"}
{"SMILES": "Oc1cc(O)cc(-c2cc3ccc(O)cc3o2)c1", "inhibition": "-35%"}
{"SMILES": "C=C1c2cccc(O)c2C(O)=C2C(=O)[C@]3(O)C(O)=C(C(N)=O)C(=O)[C@@H](N(C)C)[C@@H]3[C@@H](O)[C@H]12", "inhibition": "-6%"}
{"SMILES": "O=c1c(O)c(-c2cc(O)c(O)c(O)c2)oc2cc(O)ccc12", "inhibition": "-33%"}
{"SMILES": "CCN1CCN(C(=O)N[C@@H](C(=O)N[C@@H]2C(=O)N3[C@@H]2SC(C)(C)[C@@H]3C(=O)O)c2ccccc2)C(=O)C1=O", "inhibition": "4%"}
{"SMILES": "Cn1nnnc1SCC1=C(C(=O)O)N2C(=O)[C@@H](NC(=O)[C@H](O)c3ccccc3)[C@H]2SC1", "inhibition": "-1%"}
{"data": "Block 4", "Compound": "CC(C)(O)c1cncc(-c2nc3ccc(F)cc3n2C2CC2)c1", "technique": "competition with immobilised ligand", "concentration": "1 µM"}
{"target": "STK39 (Homo sapiens, UniProt Q9UEW8)", "test": "cell-free assay", "remaining binding [%]": 100}
{"target": "KDR (Homo sapiens, UniProt P35968)", "test": "cell-free assay", "remaining binding [%]": 100}
{"target": "CAMK2B (Homo sapiens, UniProt Q13554)", "test": "cell-free assay", "remaining binding [%]": 100}
{"target": "FLT3 (Homo sapiens, UniProt P36888)", "test": "cell-free assay", "remaining binding [%]": 93}
{"target": "CDK2 (Homo sapiens, UniProt P24941)", "test": "cell-free assay", "remaining binding [%]": 100}
{"target": "Cyclin-dependent kinase 4, with cyclin D3 (CDK4, Homo sapiens, UniProt P11802)", "test": "cell-free assay", "remaining binding [%]": 100}
{"target": "Tyrosine-protein kinase JAK3, JH1 (JAK3, Homo sapiens, UniProt P52333)", "test": "cell-free assay", "remaining binding [%]": 100}
{"target": "EPHA1 (Homo sapiens, UniProt P21709)", "test": "cell-free assay", "remaining binding [%]": 100}
{"target": "TNNI3K (Homo sapiens, UniProt Q59H18)", "test": "cell-free assay", "remaining binding [%]": 100}
{"target": "SGK2 (Homo sapiens, UniProt Q9HBY8)", "test": "cell-free assay", "remaining binding [%]": 100}
{"target": "MKNK1 (Homo sapiens, UniProt Q9BUB5)", "test": "cell-free assay", "remaining binding [%]": 100}
{"target": "Myosin-IIIb (MYO3B, Homo sapiens, UniProt Q8WXR4)", "test": "binding", "remaining binding [%]": 71}
{"target": "EIF2AK2 (Homo sapiens, UniProt P19525)", "test": "cell-free assay", "remaining binding [%]": 91}
{"target": "DCLK2 (Homo sapiens, UniProt Q8N568)", "test": "cell-free assay", "remaining binding [%]": 100}
{"target": "CAMKK2 (Homo sapiens, UniProt Q96RR4)", "test": "cell-free assay", "remaining binding [%]": 100}
{"target": "RET (Homo sapiens, UniProt P07949, M918T)", "test": "cell-free assay", "remaining binding [%]": 100}
{"target": "NEK4 (Homo sapiens, UniProt P51957)", "test": "cell-free assay", "remaining binding [%]": 100}
{"target": "HIPK3 (Homo sapiens, UniProt Q9H422)", "test": "cell-free assay", "remaining binding [%]": 93}
{"target": "VRK2 (Homo sapiens, UniProt Q86Y07)", "test": "cell-free assay", "remaining binding [%]": 100}
{"target": "CDK14 (Homo sapiens, UniProt O94921)", "test": "cell-free assay", "remaining binding [%]": 100}
{"target": "CILK1 (Homo sapiens, UniProt Q9UPZ9)", "test": "cell-free assay", "remaining binding [%]": 100}
{"target": "Tyrosine-protein kinase ABL1, phosphorylated (ABL1, Homo sapiens, UniProt P00519)", "test": "cell-free assay", "remaining binding [%]": 89}
{"target": "NEK6 (Homo sapiens, UniProt Q9HC98)", "test": "cell-free assay", "remaining binding [%]": 100}
{"target": "ERBB4 (Homo sapiens, UniProt Q15303)", "test": "cell-free assay", "remaining binding [%]": 100}
{"target": "Tyrosine-protein kinase ABL1, phosphorylated (ABL1, Homo sapiens, UniProt P00519, Y253F)", "test": "cell-free assay", "remaining binding [%]": 100}
